Measurements pooled from the literature.
Parts stem from different laboratories: compare values within a part only. Several values in a cell are separate wells, animals, samples, runs or records.
Sequence of UniProt O75582 (whole entry, looked up): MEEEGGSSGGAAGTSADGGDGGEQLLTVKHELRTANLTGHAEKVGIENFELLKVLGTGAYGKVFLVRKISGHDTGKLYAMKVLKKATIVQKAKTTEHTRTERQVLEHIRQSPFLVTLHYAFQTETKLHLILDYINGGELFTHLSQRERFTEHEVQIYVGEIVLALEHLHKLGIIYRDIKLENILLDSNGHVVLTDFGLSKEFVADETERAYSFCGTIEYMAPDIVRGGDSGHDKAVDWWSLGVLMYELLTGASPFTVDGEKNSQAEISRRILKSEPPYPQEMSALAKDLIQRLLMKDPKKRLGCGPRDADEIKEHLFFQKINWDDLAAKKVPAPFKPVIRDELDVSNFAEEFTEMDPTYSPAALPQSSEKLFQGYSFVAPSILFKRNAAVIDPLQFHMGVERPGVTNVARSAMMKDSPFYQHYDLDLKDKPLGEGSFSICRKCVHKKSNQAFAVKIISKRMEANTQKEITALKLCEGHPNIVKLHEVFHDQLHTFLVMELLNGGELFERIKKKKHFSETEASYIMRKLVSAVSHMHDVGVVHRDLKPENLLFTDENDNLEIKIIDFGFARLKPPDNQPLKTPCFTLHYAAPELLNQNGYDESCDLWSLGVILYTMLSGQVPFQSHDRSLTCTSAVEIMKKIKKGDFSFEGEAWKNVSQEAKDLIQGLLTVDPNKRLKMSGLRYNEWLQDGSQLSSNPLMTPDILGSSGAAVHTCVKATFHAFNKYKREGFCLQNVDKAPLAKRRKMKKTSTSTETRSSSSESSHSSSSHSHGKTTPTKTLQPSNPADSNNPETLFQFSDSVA
Sequence of UniProt O75914 (whole entry, looked up): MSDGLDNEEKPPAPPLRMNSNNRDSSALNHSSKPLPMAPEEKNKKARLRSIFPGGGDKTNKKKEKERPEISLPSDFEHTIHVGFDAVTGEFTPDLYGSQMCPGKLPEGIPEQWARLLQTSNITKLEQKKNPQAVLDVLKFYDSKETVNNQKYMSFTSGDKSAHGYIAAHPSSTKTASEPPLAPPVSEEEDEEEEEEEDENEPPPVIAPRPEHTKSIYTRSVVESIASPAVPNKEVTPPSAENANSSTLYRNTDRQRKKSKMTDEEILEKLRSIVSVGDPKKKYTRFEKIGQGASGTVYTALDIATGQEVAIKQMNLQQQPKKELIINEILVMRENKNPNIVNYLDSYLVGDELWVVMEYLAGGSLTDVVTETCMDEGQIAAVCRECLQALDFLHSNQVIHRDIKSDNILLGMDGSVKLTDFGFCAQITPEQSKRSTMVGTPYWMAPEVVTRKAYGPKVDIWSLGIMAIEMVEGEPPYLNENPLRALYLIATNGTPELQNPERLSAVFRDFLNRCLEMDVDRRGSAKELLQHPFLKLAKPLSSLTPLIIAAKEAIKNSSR
Sequence of UniProt Q9NSY1 (whole entry, looked up): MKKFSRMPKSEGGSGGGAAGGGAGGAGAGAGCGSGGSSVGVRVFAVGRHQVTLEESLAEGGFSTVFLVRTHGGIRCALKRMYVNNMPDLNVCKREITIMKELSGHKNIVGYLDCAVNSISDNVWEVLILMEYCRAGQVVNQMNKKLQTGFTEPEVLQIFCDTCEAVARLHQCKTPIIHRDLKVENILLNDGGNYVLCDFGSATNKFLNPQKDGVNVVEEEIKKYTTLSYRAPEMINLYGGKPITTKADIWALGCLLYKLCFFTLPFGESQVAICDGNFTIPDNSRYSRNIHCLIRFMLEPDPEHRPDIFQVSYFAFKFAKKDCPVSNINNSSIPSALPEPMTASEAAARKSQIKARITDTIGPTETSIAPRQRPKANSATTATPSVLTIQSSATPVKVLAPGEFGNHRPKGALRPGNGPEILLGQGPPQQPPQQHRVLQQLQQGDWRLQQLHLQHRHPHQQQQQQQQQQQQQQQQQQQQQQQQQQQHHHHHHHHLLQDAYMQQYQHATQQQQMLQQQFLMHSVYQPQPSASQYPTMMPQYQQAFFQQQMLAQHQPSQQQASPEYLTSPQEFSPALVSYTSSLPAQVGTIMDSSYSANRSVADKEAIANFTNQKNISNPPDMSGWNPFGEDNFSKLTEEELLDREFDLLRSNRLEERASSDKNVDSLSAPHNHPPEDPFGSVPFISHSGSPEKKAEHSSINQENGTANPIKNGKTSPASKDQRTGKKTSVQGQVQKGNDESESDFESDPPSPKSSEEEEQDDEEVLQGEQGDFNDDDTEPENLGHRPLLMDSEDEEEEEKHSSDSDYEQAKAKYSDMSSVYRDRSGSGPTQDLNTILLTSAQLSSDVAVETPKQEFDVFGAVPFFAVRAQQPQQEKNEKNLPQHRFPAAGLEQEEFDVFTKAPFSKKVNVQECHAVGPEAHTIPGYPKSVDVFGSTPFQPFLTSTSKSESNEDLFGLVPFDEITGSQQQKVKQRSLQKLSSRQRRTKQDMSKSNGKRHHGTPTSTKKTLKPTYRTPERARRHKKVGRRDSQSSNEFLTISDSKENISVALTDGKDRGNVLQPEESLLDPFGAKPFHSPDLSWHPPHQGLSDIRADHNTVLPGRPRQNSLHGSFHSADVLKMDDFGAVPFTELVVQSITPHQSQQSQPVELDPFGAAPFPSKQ
Sequence of UniProt Q8TDR2 (whole entry, looked up): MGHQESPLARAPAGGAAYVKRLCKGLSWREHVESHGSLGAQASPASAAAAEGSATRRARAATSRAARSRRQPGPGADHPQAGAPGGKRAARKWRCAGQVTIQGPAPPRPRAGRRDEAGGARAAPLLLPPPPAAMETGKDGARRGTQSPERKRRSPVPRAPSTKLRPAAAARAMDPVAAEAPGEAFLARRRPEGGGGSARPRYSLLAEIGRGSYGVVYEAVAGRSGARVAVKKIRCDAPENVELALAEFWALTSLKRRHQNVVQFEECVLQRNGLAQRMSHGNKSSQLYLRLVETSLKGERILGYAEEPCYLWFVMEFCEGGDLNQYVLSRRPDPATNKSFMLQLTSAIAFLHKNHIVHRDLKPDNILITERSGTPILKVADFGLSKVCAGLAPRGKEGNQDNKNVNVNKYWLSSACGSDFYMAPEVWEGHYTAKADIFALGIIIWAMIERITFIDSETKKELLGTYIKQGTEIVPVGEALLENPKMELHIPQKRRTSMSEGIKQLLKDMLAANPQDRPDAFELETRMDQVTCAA

Series 1
Compound: Cc1ccc(O)c(C)c1-c1cnc2[nH]c(-c3cnc(N4CCC5(CC4)CC(N4CCN(c6ccc(N[C@H]7CCC(=O)NC7=O)cc6F)CC4)CO5)nc3)cc2c1C#N (single isomer, unassigned)
Target: Membrane-associated tyrosine- and threonine-specific cdc2-inhibitory kinase (PKMYT1, Homo sapiens, UniProt Q99640)
Sequence of UniProt Q99640 (whole entry, looked up): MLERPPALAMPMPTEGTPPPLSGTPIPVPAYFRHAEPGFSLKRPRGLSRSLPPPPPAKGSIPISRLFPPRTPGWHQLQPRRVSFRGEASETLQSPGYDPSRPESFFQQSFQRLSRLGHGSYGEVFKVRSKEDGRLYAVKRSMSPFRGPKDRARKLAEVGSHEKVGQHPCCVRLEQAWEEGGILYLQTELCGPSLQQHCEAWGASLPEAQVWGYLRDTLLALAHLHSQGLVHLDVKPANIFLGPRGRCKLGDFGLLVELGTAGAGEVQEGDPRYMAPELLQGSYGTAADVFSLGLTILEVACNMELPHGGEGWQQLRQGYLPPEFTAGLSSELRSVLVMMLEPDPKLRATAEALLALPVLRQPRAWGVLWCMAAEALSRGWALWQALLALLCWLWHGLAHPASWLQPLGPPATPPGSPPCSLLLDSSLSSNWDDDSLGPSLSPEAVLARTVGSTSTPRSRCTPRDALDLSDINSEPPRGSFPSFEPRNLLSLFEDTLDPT
Mode: degrader
| test | test system | setting | degradation |
| --- | --- | --- | --- |
| automated immunoblot (Jess) |  | 333.33 nM, 24 h | 83.8% and 89.4% |
| automated immunoblot (Jess) | HCC1569 | 0.05 nM, 24 h | 5.66% |
| automated immunoblot (Jess) |  | 12.35 nM, 24 h | 88% and 86.6% |
| automated immunoblot (Jess) |  | 1000 nM, 24 h | 77.5% and 63.9% |
| automated immunoblot (Jess) | HCC1569 | 0.02 nM, 24 h | -11.1% |
| automated immunoblot | HCC1569 | 100 nM | 85.9% and 85% and 84.6% |
| automated immunoblot (Jess) |  | 0.15 nM, 24 h | 13.8% and 15.3% |
| automated immunoblot (Jess) |  | 0.46 nM, 24 h | 40.2% and 39.2% |
| automated immunoblot (Jess) |  | 0.05 nM, 24 h | 3.06% and 5.66% |

Series 2
SMILES: C[C@@H]1CN(c2ccc(-c3cc(C(=O)NCCOCCOCCOCCOCCNC(=O)Cn4cc(-c5[nH]cc(C(=O)N[C@@H](CC(N)=O)c6ccc(F)c(Cl)c6)c5-c5ccc(Cl)cc5F)cn4)ccc3F)cc2NC(=O)c2c[nH]c(=O)cc2C(F)(F)F)C[C@H](C)N1C
Effect on: thermal unfolding
Method: differential scanning fluorimetry
Tested at: 5.5 µM
Reading: higher = more unfolded
WDR5: WD repeat-containing protein 5 (WDR5, Homo sapiens, UniProt P61964)
DCAF1: DDB1- and CUL4-associated factor 1 (DCAF1, Homo sapiens, UniProt Q9Y4B6)
Sequence of UniProt Q9Y4B6 (whole entry, looked up): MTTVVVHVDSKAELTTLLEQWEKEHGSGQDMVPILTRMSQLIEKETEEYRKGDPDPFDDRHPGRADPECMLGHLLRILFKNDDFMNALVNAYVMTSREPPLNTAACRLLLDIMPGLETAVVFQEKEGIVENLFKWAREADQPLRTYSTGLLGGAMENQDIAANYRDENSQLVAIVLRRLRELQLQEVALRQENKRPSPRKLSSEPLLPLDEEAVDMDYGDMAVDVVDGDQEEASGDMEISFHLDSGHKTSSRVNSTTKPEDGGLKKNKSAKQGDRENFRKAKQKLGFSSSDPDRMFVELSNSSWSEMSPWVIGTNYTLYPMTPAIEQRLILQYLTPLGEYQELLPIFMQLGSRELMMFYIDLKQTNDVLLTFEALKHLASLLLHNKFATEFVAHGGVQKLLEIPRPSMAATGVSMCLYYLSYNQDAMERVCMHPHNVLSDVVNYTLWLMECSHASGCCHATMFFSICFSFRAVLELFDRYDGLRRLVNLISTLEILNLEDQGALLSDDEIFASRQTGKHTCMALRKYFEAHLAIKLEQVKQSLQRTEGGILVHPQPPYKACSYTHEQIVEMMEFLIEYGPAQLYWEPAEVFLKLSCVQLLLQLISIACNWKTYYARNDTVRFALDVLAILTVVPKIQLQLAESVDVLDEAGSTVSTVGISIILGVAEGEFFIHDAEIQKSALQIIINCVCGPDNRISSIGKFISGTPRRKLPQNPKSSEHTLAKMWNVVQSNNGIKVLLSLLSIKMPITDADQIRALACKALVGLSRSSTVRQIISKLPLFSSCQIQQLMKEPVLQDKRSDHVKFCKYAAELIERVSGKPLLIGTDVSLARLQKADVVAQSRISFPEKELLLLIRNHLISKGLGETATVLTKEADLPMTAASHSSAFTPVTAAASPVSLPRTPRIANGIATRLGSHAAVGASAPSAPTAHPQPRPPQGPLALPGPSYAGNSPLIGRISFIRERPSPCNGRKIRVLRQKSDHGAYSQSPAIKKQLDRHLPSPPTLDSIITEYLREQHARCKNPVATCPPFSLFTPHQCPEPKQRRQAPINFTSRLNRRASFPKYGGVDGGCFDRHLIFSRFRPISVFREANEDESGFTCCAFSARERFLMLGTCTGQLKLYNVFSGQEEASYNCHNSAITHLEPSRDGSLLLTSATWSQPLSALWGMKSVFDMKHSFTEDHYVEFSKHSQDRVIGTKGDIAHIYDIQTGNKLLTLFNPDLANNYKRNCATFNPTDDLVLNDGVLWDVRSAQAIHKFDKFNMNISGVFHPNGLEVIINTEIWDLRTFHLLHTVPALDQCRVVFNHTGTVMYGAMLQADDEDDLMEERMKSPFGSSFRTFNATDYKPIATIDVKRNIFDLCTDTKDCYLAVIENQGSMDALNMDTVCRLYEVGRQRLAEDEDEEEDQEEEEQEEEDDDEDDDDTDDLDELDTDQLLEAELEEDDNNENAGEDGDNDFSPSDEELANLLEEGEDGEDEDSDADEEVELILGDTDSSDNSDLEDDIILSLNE
| target | setting | SYPRO Orange fluorescence [a.u.] |
| --- | --- | --- |
| WDR5 | 51.4 °C | 14400 |
| WDR5 | 59.01 °C | 11000 |
| DCAF1 | 32.8 °C | 8300 |
| DCAF1 | 58.41 °C | 30500 |
| WDR5 | 47 °C | 14300 |
| DCAF1 | 52.61 °C | 16300 |
| WDR5 | 46 °C | 14300 |
| DCAF1 | 47.6 °C | 13400 |
| WDR5 | 50.4 °C | 14400 |
| WDR5 | 83.41 °C | 34900 |
| WDR5 | 86.81 °C | 42700 |

Series 3
Compound: COc1cc(-c2nc3ccc(C(=O)NCCCN4CCN(c5cccc(C)c5C)CC4)cc3n2C2CCC2)cc(OC)c1OC
Effect on: binding
Method: competition with immobilised ligand
Tested at: 1 µM
| target | remaining binding |
| --- | --- |
| SGK1 (Homo sapiens, UniProt O00141) | 88% |
| WNK2 (Homo sapiens, UniProt Q9Y3S1) | 86% |
| PRKG1 (Homo sapiens, UniProt Q13976) | 100% |
| DCLK1 (Homo sapiens, UniProt O15075) | 79% |
| CILK1 (Homo sapiens, UniProt Q9UPZ9) | 88% |
| Aurora kinase A (AURKA, Homo sapiens, UniProt O14965) | 99% |
| BMPR1A (Homo sapiens, UniProt P36894) | 53% |
| CSNK1E (Homo sapiens, UniProt P49674) | 99% |
| Ribosomal protein S6 kinase alpha-5, N-terminal kinase domain (RPS6KA5, Homo sapiens, UniProt O75582) | 100% |
| PAK3 (Homo sapiens, UniProt O75914) | 50% |
| CDK4 (Homo sapiens, UniProt P11802) | 80% |
| DDR1 (Homo sapiens, UniProt Q08345) | 71% |
| RIPK1 (Homo sapiens, UniProt Q13546) | 100% |
| LYN (Homo sapiens, UniProt P07948) | 79% |

Series 4
SMILES: CC[C@@]1(c2cccc(C(F)(F)F)c2)C2=C(Nc3n[nH]cc31)[C@H](F)C(C)(C)CC2=O (single isomer, unassigned)
Tested at: 1 µM
| target | test | how to read | remaining binding [%] |
| --- | --- | --- | --- |
| IRAK3 (Homo sapiens, UniProt Q9Y616) | binding, competition with immobilised ligand |  | 82 |
| IKBKB (Homo sapiens, UniProt O14920) | binding, competition with immobilised ligand |  | 100 |
| PRKCH (Homo sapiens, UniProt P24723) | binding, competition with immobilised ligand |  | 100 |
| FLT3 (Homo sapiens, UniProt P36888, D835H) | binding, competition with immobilised ligand |  | 100 |
| MAP3K6 (Homo sapiens, UniProt O95382) | kinase binding, KINOMEscan | reference: DMSO control | 100 |
| PAK3 (Homo sapiens, UniProt O75914) | kinase binding, KINOMEscan | reference: DMSO control | 100 |
| CDKL5 (Homo sapiens, UniProt O76039) | kinase binding, KINOMEscan | reference: DMSO control | 100 |
| Aurora kinase C (AURKC, Homo sapiens, UniProt Q9UQB9) | kinase binding, KINOMEscan | reference: DMSO control | 100 |
| CSNK1G1 (Homo sapiens, UniProt Q9HCP0) | binding, competition with immobilised ligand |  | 56 |
| OXSR1 (Homo sapiens, UniProt O95747) | kinase binding, KINOMEscan | reference: DMSO control | 100 |
| STK35 (Homo sapiens, UniProt Q8TDR2) | binding, competition with immobilised ligand |  | 98 |
| PIK3CA (Homo sapiens, UniProt P42336, H1047L) | kinase binding, KINOMEscan | reference: DMSO control | 100 |
| PAK1 (Homo sapiens, UniProt Q13153) | binding, competition with immobilised ligand |  | 100 |
| BMP2K (Homo sapiens, UniProt Q9NSY1) | binding, competition with immobilised ligand |  | 66 |
| Ribosomal protein S6 kinase alpha-5, N-terminal kinase domain (RPS6KA5, Homo sapiens, UniProt O75582) | binding, competition with immobilised ligand |  | 100 |
| NIM1K (Homo sapiens, UniProt Q8IY84) | binding, competition with immobilised ligand |  | 94 |
| BMPR1B (Homo sapiens, UniProt O00238) | kinase binding, KINOMEscan | reference: DMSO control | 100 |

For quick reference, copied from above (series 2):
| target | setting | SYPRO Orange fluorescence [a.u.] |
| --- | --- | --- |
| WDR5 | 47 °C | 14300 |
| DCAF1 | 52.61 °C | 16300 |
| WDR5 | 86.81 °C | 42700 |
